# Assay results gathered from unrelated publications.
# Protocols differ between the studies behind these lines. ± marks the error that the study gave.
SMILES,organism,assay,system,setting,measurement,result
O=C1CC(c2ccc(O)cc2)Oc2cc(O)cc([O][Ga+][O]c3cc(O)cc4c3C(=O)CC(c3ccc(O)cc3)O4)c21 (stereo not drawn),Pseudomonas aeruginosa,"significantly changed metabolites, GC-MS metabolomics",,"16 µM, 4 h",number of metabolites,61
CCN(CC)CCSC(=S)N1CCN(C(=O)/C=C/c2coc3ccccc3c2=O)CC1,tomato spotted wilt virus,"viral infection, half-leaf method",Nicotiana glutinosa,500 µg/mL,inactivation effect,62.2 ± 1.9%
O=C(CCCN1C(=O)c2cccc3cccc(c23)C1=O)NO,Cryptosporidium parvum,"Western blot, refers to: H3K9ac",,"10 µM, 90 min, sporozoites",histone acetylation,no effect
Oc1cc(C(F)(F)F)ccc1-c1nc2c(C(F)(F)F)cc(C(F)(F)F)cc2[nH]1,Klebsiella pneumoniae,colistin potentiator,"KP I2, colistin-resistant",5 µM,colistin MIC,2 µg/mL
CCC12CCc3c(c4ccccc4n3C)CCN(CC3OC31)C2 (stereo not drawn),Danio rerio,,larvae,"6, 12 and 25 µM, with: LPS 2.5 mg/mL",swimming distance,increased
CN(C)CCCSC(=S)N1CCN(C(=O)/C=C/c2coc3ccccc3c2=O)CC1,tomato spotted wilt virus,"viral infection, half-leaf method",Nicotiana glutinosa,500 µg/mL,inactivation effect,77.3%
c1ccc(-c2nc(-c3ccc4ccccc4c3)c[nH]2)cc1,Schistosoma mansoni,,adult male worms,100 µM,worm killing,12%
CN(C)CCSC(=S)N1CCN(C(=O)/C=C/c2coc3ccc(F)cc3c2=O)CC1,tomato spotted wilt virus,"viral infection, half-leaf method",Nicotiana glutinosa,500 µg/mL,curative effect,64.2 ± 6.1%
Oc1ccc(C(F)(F)F)cc1-c1nc2c(Cl)cc(Cl)cc2[nH]1,Klebsiella pneumoniae,colistin potentiator,"KP F9, colistin-resistant",5 µM,colistin MIC,1 µg/mL

# Excerpt of the above:
SMILES,organism,assay,system,setting,measurement,result
CCN(CC)CCSC(=S)N1CCN(C(=O)/C=C/c2coc3ccccc3c2=O)CC1,tomato spotted wilt virus,"viral infection, half-leaf method",Nicotiana glutinosa,500 µg/mL,inactivation effect,62.2 ± 1.9%
O=C(CCCN1C(=O)c2cccc3cccc(c23)C1=O)NO,Cryptosporidium parvum,"Western blot, refers to: H3K9ac",,"10 µM, 90 min, sporozoites",histone acetylation,no effect
